{"data": "Measured values from different studies", "note": "Each line is one published result; not all experiments were run side by side. Values joined by “and” are separate records of one study, mostly repeats; a detail may differ. Numbers after ± are the reported error."}
{"Structure (SMILES)": "CCCCCCCCCCCCN1/C(=C\\C=C\\C2=[N+](CCCCCCCCCCCC)c3ccccc3C2(C)C)C(C)(C)c2ccccc21.[O-][Cl+3]([O-])([O-])[O-]", "test": "HPLC", "test system": "mouse serum", "conditions": "24 h, 37 °C", "endpoint": "remaining intact compound", "value": "> 95%"}
{"Structure (SMILES)": "NNc1ccccc1", "test system": "PBS", "conditions": "12 h, 37 °C", "scale": "baseline: initial amount", "endpoint": "remaining fraction", "value": "0.45 and 0.41 and 0.52"}
{"Structure (SMILES)": "CC(C)(C)[C@H](NC(=O)C(F)(F)F)C(=O)N1C[C@H]2[C@@H]([C@H]1C(=O)N[C@H](C#N)C[C@@H]1CCNC1=O)C2(C)C", "test system": "mouse liver microsomes", "conditions": "60 min, together with: NADPH", "endpoint": "remaining compound", "value": "5.9%"}
{"Structure (SMILES)": "CC(=O)OC/C(C)=C/CCP(=O)(OCOC(=O)CC1CCCCC1)Oc1ccc(C(C)C)cc1 (stereo not drawn)", "test system": "50% Sprague-Dawley rat plasma", "conditions": "100 µM, 2 h, pH 7.5, 37 °C", "endpoint": "remaining compound", "value": "0.021%"}
{"Structure (SMILES)": "CC(C)C[C@@H]1NC(=O)CNC(=O)[C@H](CC(N)=O)NC(=O)[C@H](CCCNC(=N)N)NC(=O)[C@H]([C@@H](C)O)NC(=O)[C@@H]2CSSC[C@@H]3NC(=O)[C@H]([C@@H](C)O)NC(=O)CNC(=O)CNC(=O)[C@H](C(C)C)NC(=O)[C@@H]4CSSC[C@H](NC(=O)[C@H]([C@@H](C)O)NC(=O)[C@H](CSSC[C@H](NC(=O)[C@H](C(C)C)NC(=O)[C@@H]5CCCN5C1=O)C(=O)NCC(=O)N[C@@H](CCC(=O)O)C(=O)N[C@@H]([C@@H](C)O)C(=O)N4)NC(=O)CNC(=O)[C@@H]1CCCN1C(=O)[C@H]([C@@H](C)O)NC(=O)[C@H](CC(N)=O)NC3=O)C(=O)N[C@@H](CCCCN)C(=O)N[C@@H](Cc1c[nH]c3ccccc13)C(=O)N1CCC[C@H]1C(=O)N[C@@H](C(C)C)C(=O)N2", "test": "HPLC", "test system": "water", "conditions": "180 µM, 14 days, 37 °C, deamidation stability", "endpoint": "remaining peptide", "value": "98 ± 0.6%"}
{"Structure (SMILES)": "CC[C@H](C)[C@H](NC(=O)[C@H](CCCCN)NC(=O)[C@H](CCC(=O)O)NC(=O)[C@H](CCCCN)NC(=O)[C@H](CO)NC(=O)[C@H](CCCCN)NC(=O)[C@H](CCCNC(=N)N)NC(=O)[C@H](Cc1ccccc1)NC(=O)[C@H](Cc1ccccc1)NC(=O)[C@H](CC(=O)O)NC(=O)CNC(=O)[C@H](CC(C)C)NC(=O)[C@@H](N)CC(C)C)C(=O)NCC(=O)N[C@@H](CCCCN)C(=O)N[C@@H](CCC(=O)O)C(=O)N[C@@H](Cc1ccccc1)C(=O)N[C@@H](CCCCN)C(=O)N[C@@H](CCCNC(=N)N)C(=O)N[C@H](C(=O)N[C@H](C(=O)N[C@@H](CCC(N)=O)C(=O)N[C@@H](CCCNC(=N)N)C(=O)N[C@H](C(=O)N[C@@H](CCCCN)C(=O)N[C@@H](CC(=O)O)C(=O)N[C@@H](Cc1ccccc1)C(=O)N[C@@H](CC(C)C)C(=O)N[C@@H](CCCNC(=N)N)C(=O)N[C@@H](CC(N)=O)C(=O)N[C@@H](CC(C)C)C(=O)N[C@H](C(=O)N1CCC[C@H]1C(=O)N[C@@H](CCCNC(=N)N)C(=O)N[C@H](C(=O)N[C@@H](CCC(=O)O)C(=O)N[C@@H](CO)C(=O)O)[C@@H](C)O)C(C)C)[C@@H](C)CC)C(C)C)[C@@H](C)CC", "test": "LC-MS", "test system": "buffer with human neutrophil elastase", "conditions": "40 µM, 720 min, pH 7.5, 37 °C", "scale": "baseline: 0 h", "endpoint": "remaining intact peptide", "value": "0%"}
{"Structure (SMILES)": "CC[C@H](C)[C@H](N)C(=O)N[C@H](CC(C)C)C(=O)N[C@@H](CCCNC(=N)N)C(=O)N[C@@H](Cc1c[nH]c2ccccc12)C(=O)N[C@@H](CO)C(=O)N[C@@H](CCCNC(=N)N)C(=O)N[C@@H](CCCCN)C(=O)N[C@@H](CC(C)C)C(=O)N1CCC[C@H]1C(=O)N[C@@H](CS)C(=O)N[C@H](C(=O)N[C@@H](CO)C(N)=O)C(C)C", "test": "12G5 competition, SUP-T1 cells", "test system": "human plasma", "conditions": "20 µM, 2 h, 37 °C", "endpoint": "remaining activity", "value": "63 ± 12%"}
{"Structure (SMILES)": "CC(C)=CCC[C@](C)(O[C@@H]1O[C@H](CO)[C@@H](O)[C@H](O)[C@H]1O)[C@H]1CC[C@]2(C)[C@@H]1[C@H](O)C[C@@H]1[C@@]3(C)CC[C@H](O)C(C)(C)[C@@H]3CC[C@]12C", "test system": "rat plasma", "conditions": "5 ng/mL, 24 h, room temperature", "endpoint": "remaining amount", "value": "98.4 ± 7.8%"}
{"Structure (SMILES)": "CC[C@@H](C)[C@@H](NC(C)=O)C(=O)N[C@@H](CC(C)C)C(=O)N[C@@H](CCCNC(=N)N)C(=O)N[C@@H](Cc1c[nH]c2ccccc12)C(=O)N[C@@H](CO)C(=O)N[C@@H](CCCNC(=N)N)C(=O)N[C@@H](CCCCN)C(=O)N[C@@H](CC(C)C)C(=O)N1CCC[C@H]1C(=O)N[C@@H](CS)C(=O)N[C@H](C(=O)N[C@@H](CO)C(N)=O)C(C)C", "test": "12G5 competition, SUP-T1 cells", "test system": "human plasma", "conditions": "concentration not given, 8 h", "endpoint": "remaining activity", "value": "71 ± 17%"}
{"Structure (SMILES)": "CC(C)C[C@@H]1NC(=O)CNC(=O)[C@H](CC(N)=O)NC(=O)[C@H](CCCNC(=N)N)NC(=O)[C@H]([C@@H](C)O)NC(=O)[C@@H]2CSSC[C@@H]3NC(=O)[C@H]([C@@H](C)O)NC(=O)CNC(=O)CNC(=O)[C@H](C(C)C)NC(=O)[C@@H]4CSSC[C@H](NC(=O)[C@H]([C@@H](C)O)NC(=O)[C@H](CSSC[C@H](NC(=O)[C@H](C(C)C)NC(=O)[C@@H]5CCCN5C1=O)C(=O)NCC(=O)N[C@@H](CCC(=O)O)C(=O)N[C@@H]([C@@H](C)O)C(=O)N4)NC(=O)CNC(=O)[C@H](CCCCN)NC(=O)[C@H]([C@@H](C)O)NC(=O)[C@H](CC(N)=O)NC3=O)C(=O)N[C@@H](CO)C(=O)N[C@@H](Cc1c[nH]c3ccccc13)C(=O)N1CCC[C@H]1C(=O)N[C@@H](C(C)C)C(=O)N2", "test": "HPLC", "test system": "water", "conditions": "180 µM, 14 days, 37 °C, deamidation stability", "endpoint": "remaining peptide", "value": "99 ± 0.2%"}
{"Structure (SMILES)": "CC[C@@H](C)[C@@H](NC(=O)[C@@H](Cc1ccc(O)cc1)NC(=O)[C@H]1CCCN1C(=O)[C@@H](CCCNC(=N)N)NC(=O)[C@H](N)Cc1c[nH]cn1)C(=O)N[C@H](C)C(=O)N[C@H](Cc1c[nH]cn1)C(=O)N[C@H](CCCNC(=N)N)C(=O)N[C@H](CCCCNC(=O)c1cccc(S(=O)(=O)F)c1)C(=O)N[C@H](Cc1ccc(O)cc1)C(=O)N[C@H](CO)C(=O)N[C@H](Cc1ccccc1)C(N)=O", "test system": "10% human serum", "conditions": "0.5 h", "endpoint": "remaining compound", "value": "112% and 113%"}
{"Structure (SMILES)": "CC(C)C[C@@H]1NC(=O)CNC(=O)[C@H](CC(N)=O)NC(=O)[C@H](CCCNC(=N)N)NC(=O)[C@H]([C@@H](C)O)NC(=O)[C@@H]2CSSC[C@@H]3NC(=O)[C@H]([C@@H](C)O)NC(=O)CNC(=O)CNC(=O)[C@H](C(C)C)NC(=O)[C@@H]4CSSC[C@H](NC(=O)[C@H]([C@@H](C)O)NC(=O)[C@H](CSSC[C@H](NC(=O)[C@H](C(C)C)NC(=O)[C@@H]5CCCN5C1=O)C(=O)N[C@@H](CCCCN)C(=O)N[C@@H](CCC(=O)O)C(=O)N[C@@H]([C@@H](C)O)C(=O)N4)NC(=O)CNC(=O)[C@@H]1CCCN1C(=O)[C@H]([C@@H](C)O)NC(=O)[C@H](CC(N)=O)NC3=O)C(=O)N[C@@H](CO)C(=O)N[C@@H](Cc1c[nH]c3ccccc13)C(=O)N1CCC[C@H]1C(=O)N[C@@H](C(C)C)C(=O)N2", "test": "HPLC", "test system": "ammonium bicarbonate", "conditions": "180 µM, 14 days, pH 9.0, 25 °C, deamidation stability", "endpoint": "remaining peptide", "value": "80.1 ± 8.8%"}
{"Structure (SMILES)": "CCC[C@@](N)(CO)CCc1ccc(OCCCCCC(C)C)cc1", "test system": "mouse liver microsomes", "conditions": "1 h", "endpoint": "remaining compound", "value": "42%"}
{"Structure (SMILES)": "CSCC[C@H](NC(=O)[C@H](CCCCN)NC(=O)[C@H](CCCNC(=N)N)NC(=O)[C@H](CO)NC(=O)[C@H](Cc1c[nH]c2ccccc12)NC(=O)[C@H](CCCNC(=N)N)NC(=O)[C@H](CC(C)C)NC(=O)[C@H](CO)NC(C)=O)C(=O)N1CCC[C@H]1C(=O)N[C@@H](CS)C(=O)N[C@H](C(=O)N[C@@H](CO)C(N)=O)C(C)C", "test": "12G5 competition, SUP-T1 cells", "test system": "human plasma", "conditions": "concentration not given, 2 h", "endpoint": "remaining activity", "value": "77 ± 9%"}
{"Structure (SMILES)": "CC(C)C[C@@H]1NC(=O)CNC(=O)[C@H](CC(N)=O)NC(=O)[C@H](CCCNC(=N)N)NC(=O)[C@H]([C@@H](C)O)NC(=O)[C@@H]2CSSC[C@@H]3NC(=O)[C@H]([C@@H](C)O)NC(=O)CNC(=O)CNC(=O)[C@H](C(C)C)NC(=O)[C@@H]4CSSC[C@H](NC(=O)[C@H]([C@@H](C)O)NC(=O)[C@H](CSSC[C@H](NC(=O)[C@H](C(C)C)NC(=O)[C@@H]5CCCN5C1=O)C(=O)NCC(=O)N[C@@H](CCCCN)C(=O)N[C@@H]([C@@H](C)O)C(=O)N4)NC(=O)CNC(=O)[C@@H]1CCCN1C(=O)[C@H]([C@@H](C)O)NC(=O)[C@H](CC(N)=O)NC3=O)C(=O)N[C@@H](CO)C(=O)N[C@@H](Cc1c[nH]c3ccccc13)C(=O)N1CCC[C@H]1C(=O)N[C@@H](C(C)C)C(=O)N2", "test": "HPLC", "test system": "water", "conditions": "180 µM, 14 days, 37 °C, deamidation stability", "endpoint": "remaining peptide", "value": "98.2 ± 0.1%"}
